Assay results gathered from unrelated publications.
Compare with care: the assays were run in different laboratories. “And” joins repeats or separate records; there may be more than shown.
BRAF: Serine/threonine-protein kinase B-raf (BRAF, Homo sapiens, UniProt P15056)
UniProt P15056, sequence (whole entry, unmodified, looked up): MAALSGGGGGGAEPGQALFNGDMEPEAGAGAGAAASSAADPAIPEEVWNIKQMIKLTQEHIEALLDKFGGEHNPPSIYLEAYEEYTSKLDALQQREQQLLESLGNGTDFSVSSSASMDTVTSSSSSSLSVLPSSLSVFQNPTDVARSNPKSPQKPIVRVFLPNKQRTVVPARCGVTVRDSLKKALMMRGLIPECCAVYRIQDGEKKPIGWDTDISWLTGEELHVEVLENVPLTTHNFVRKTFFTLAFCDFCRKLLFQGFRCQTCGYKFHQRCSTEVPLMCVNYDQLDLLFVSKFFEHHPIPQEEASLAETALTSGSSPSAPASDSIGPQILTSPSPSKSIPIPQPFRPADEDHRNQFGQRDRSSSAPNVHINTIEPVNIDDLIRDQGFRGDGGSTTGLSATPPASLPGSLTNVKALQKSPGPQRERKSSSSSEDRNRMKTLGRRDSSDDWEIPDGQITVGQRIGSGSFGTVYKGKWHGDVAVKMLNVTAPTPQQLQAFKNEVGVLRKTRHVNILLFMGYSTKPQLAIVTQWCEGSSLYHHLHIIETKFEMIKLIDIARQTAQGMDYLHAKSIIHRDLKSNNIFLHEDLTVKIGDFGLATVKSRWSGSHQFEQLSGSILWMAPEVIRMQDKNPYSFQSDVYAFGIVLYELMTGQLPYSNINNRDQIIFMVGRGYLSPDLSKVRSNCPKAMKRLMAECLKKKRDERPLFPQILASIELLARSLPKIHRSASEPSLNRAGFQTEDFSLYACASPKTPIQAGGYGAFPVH
BRAF V600E: Serine/threonine-protein kinase B-raf (BRAF, Homo sapiens, UniProt P15056, V600E)

| SMILES | target | assay | system | conditions | scale | quantity | result |
| --- | --- | --- | --- | --- | --- | --- | --- |
| CCn1cc(C(=O)O)c(=O)c2c(N)c(F)c(NC3CCCCC3)cc21 | BRAF | kinase activity | – | 0.1 µM, together with: ATP at Km | – | inhibition | -11.1% |
| COCC12C(=O)NC3C4(C(OC)CC1O)C1CC5(O)C(OC)C(O)C(OC(C)=O)(C1C5OC(=O)c1ccccc1)C3(O)C(OC)C24 (centres unmarked) | BRAF | kinase activity, inhibitor, ProQinase kinase profiling | – | 25 µM | relative to: control | remaining activity | 108% and 117% |
| CNC(=O)C[C@H](Cc1ccc(C#N)cc1)NC(=O)c1cc(-c2ccc(CN[C@H](C)c3ccc(C)cc3)o2)ccc1Cl | BRAF | enzyme activity, inhibitor | – | 1 µM | – | activity vs control | 102% |
| COc1ccc(O)cc1-c1c[nH]c2ncc(-c3cncc(C(=O)N(C)C)c3)cc12 | BRAF | binding, competition with immobilised ligand | – | 0.2 µM | – | inhibition | 2.08% |
| COc1ccc(C(=O)/C=C/c2ccccc2-c2c[nH]c3ccc(C#N)cc23)c(O)c1 | BRAF V600E | enzyme activity, inhibitor | – | 20 µM | – | inhibition | 3% |
| C=C1CCCCCCCCCC(CO)C1=O (centres unmarked) | BRAF V600E | cell-free assay | – | 10 µM | – | remaining signal | 76% |
| Cc1[nH]nc2c1N=C(c1ccccc1Cl)c1cnc(N3CCOCC3)cc1N2 | BRAF V600E | enzyme activity, inhibitor | – | 0.5 µM | – | inhibition | 9.3% |
| Nc1ncc(-c2cc(-c3cnn(CC(F)(F)F)c3)ncc2F)nc1C(=O)NC1CNCC(F)C1 (centres unmarked) | BRAF | enzyme activity | – | 1 µM | relative to: DMSO control | remaining activity | 93.2% |
| CN1CCN(Cc2ccc(NC(=O)c3cccc(C#Cc4cnc(N)c5ncccc45)c3)cc2C(F)(F)F)CC1 | BRAF V600E | cell-free assay, competition with immobilised ligand | – | 0.5 µM | – | remaining binding | 0.1% |
| CS(=O)(=O)Nc1cccc(-c2csc3cnc(Nc4ccc(N5CCN(CCCCCOc6cccc7c6C(=O)N(C6CCC(=O)NC6=O)C7=O)CC5)cc4)nc23)c1 (centres unmarked) | BRAF | probe labelling, inhibitor, KiNativ chemoproteomics | MOLT-4 | 1 µM | – | inhibition | -22.3% |
| NC(=O)[C@@H](O)C[C@H]1CCc2sc3ncnc(O[C@H]4CC[C@H](N5CCOCC5)CC4)c3c21 | BRAF | enzyme activity, inhibitor | – | 10 µM | – | inhibition | 10% |
| O=C(Nc1ccc(Oc2ncnc3[nH]cc(-c4ccccc4)c23)c(F)c1)c1c2n(n(-c3cc(F)ccc3F)c1=O)CCCC2 | BRAF | enzyme activity, inhibitor | – | 0.5 µM | – | inhibition | 12% |
| Cc1cccc(O[C@H]2CCC[C@@H](C(C)CNCc3ccncc3)C2)c1 (relative stereo) | BRAF | cell-free assay | – | 1 µM | – | inhibition | 1% |
| C=CC(=O)Nc1cccc(-c2cnc3[nH]cc(C(=O)NC(C)(C)C)c3n2)c1 | BRAF | enzyme activity, inhibitor | – | 0.1 µM | – | inhibition | -3% |

For quick reference, copied from above:
| SMILES | target | assay | system | conditions | scale | quantity | result |
| --- | --- | --- | --- | --- | --- | --- | --- |
| C=C1CCCCCCCCCC(CO)C1=O (centres unmarked) | BRAF V600E | cell-free assay | – | 10 µM | – | remaining signal | 76% |
